Experimental data gathered from unrelated publications.
Numbered parts are unrelated; each lists some results of a single study. ± gives the spread as reported.
UniProt Q92793, sequence (whole entry, unmodified, looked up): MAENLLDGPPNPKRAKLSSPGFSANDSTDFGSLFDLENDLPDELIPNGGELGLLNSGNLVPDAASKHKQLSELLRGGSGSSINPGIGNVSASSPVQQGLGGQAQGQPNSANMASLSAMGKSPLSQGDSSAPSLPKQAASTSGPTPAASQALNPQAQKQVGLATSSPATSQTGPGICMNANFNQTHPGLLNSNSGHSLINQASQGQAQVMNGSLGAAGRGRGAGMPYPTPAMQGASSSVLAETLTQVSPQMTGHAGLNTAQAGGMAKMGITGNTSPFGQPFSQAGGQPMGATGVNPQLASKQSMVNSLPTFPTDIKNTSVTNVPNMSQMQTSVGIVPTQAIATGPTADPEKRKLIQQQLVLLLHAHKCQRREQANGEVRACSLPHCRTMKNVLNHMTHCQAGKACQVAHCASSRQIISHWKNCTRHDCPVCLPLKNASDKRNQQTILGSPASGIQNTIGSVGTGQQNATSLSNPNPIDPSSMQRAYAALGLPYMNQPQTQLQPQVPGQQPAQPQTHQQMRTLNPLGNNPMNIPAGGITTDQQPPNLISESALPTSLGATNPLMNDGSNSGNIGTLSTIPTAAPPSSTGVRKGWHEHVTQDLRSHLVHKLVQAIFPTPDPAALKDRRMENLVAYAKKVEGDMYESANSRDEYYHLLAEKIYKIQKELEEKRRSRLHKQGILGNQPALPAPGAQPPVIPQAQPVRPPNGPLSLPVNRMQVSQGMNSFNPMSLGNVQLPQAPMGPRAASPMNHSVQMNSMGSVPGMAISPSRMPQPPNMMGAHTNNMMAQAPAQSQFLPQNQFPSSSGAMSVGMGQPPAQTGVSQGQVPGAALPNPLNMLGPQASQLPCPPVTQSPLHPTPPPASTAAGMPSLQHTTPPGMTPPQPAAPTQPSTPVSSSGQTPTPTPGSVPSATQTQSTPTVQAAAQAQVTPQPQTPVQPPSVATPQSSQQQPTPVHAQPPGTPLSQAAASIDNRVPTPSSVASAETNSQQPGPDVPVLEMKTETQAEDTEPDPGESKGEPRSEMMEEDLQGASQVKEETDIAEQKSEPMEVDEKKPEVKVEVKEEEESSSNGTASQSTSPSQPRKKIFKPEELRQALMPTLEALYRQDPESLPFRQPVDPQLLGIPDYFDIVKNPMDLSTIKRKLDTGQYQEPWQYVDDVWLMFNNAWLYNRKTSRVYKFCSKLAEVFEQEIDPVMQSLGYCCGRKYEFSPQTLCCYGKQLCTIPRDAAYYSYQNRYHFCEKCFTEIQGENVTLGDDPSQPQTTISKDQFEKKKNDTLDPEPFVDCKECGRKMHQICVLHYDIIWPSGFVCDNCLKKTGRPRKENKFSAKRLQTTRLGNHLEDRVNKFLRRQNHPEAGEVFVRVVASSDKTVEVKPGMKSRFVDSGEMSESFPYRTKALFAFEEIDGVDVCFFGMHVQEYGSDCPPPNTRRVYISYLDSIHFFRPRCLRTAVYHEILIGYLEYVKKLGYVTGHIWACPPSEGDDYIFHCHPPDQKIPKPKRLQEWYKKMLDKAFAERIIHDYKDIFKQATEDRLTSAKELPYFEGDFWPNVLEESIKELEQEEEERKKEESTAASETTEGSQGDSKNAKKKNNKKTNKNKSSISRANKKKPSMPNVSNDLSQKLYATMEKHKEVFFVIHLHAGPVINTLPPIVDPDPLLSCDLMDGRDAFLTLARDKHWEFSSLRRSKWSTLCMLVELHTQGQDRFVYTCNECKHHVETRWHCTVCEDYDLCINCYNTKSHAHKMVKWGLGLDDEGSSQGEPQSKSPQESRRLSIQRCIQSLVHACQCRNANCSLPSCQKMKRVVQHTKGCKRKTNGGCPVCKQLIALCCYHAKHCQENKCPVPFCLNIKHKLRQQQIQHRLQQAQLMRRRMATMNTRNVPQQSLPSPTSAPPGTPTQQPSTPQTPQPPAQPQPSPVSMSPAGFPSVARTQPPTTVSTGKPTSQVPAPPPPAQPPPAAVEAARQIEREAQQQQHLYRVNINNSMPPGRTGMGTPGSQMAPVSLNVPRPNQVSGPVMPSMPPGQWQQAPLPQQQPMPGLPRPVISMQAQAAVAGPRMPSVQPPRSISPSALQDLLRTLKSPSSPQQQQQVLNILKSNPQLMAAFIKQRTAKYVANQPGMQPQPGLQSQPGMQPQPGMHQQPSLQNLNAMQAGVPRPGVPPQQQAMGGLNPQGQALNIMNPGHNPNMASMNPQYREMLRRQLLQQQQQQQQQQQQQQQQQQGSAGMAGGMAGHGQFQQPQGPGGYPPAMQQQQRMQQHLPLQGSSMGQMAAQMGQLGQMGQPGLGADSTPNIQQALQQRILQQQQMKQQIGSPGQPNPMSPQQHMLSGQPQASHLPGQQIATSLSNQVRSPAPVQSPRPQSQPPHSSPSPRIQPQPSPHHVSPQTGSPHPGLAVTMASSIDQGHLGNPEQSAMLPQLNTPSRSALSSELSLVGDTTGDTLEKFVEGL
UniProt P34913, sequence (whole entry, looked up): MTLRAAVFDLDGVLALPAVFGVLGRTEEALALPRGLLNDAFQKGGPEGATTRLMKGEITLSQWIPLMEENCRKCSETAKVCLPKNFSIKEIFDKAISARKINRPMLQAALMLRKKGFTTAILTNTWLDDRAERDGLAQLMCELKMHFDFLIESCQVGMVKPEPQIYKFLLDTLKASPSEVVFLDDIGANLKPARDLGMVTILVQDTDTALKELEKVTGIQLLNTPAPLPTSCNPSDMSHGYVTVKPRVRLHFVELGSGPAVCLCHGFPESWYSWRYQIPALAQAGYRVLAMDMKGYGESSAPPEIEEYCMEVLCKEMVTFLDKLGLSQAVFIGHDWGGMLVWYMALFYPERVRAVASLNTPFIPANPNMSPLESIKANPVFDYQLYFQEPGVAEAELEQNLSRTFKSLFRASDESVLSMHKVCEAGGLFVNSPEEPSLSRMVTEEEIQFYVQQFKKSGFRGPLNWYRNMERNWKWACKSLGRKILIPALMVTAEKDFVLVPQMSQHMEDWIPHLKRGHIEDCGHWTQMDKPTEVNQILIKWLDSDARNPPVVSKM

Block 1
SMILES: Cc1cc(OCc2nnc(SC3CCCC3)n2-c2cccnc2)ccc1-c1ccc(S(C)(=O)=O)cc1
Measurement: GI50
BT-549: 180 nM
KM12: 1440 nM
SF-295: 156 nM
PC-3: 1510 nM

Mixed results
Cc1ccc(S(=O)(=O)Nc2c(N3CCC(NC(=O)Nc4ccc(Cl)c(C(F)(F)F)c4)CC3)c(=O)c2=O)cc1  IC50 (Bifunctional epoxide hydrolase 2 (EPHX2, Homo sapiens, UniProt P34913)): 4 ± 0.3 nM
CC[C@@H]1C(=O)N(C)c2cnc(Nc3ccc(C(=O)NC4CCN(C)CC4)cc3OC)nc2N1C1CCCC1  ΔTm (CREB-binding protein (CREBBP, Homo sapiens, UniProt Q92793); thermal stabilisation, thermal shift; 10 µM): 0.15 ± 0.25 °C
C#Cc1cccc(Nc2ncnc3cc(OCCOC)c(OCCOC)cc23)c1  viability (PC-3; MTT; 12.5 µg/mL, RPMI medium with 2% serum): 8.91%
N#Cc1ccc(-c2csc(CNC(=O)C34CC(CN(C(=O)COCCF)C3)C4)n2)cc1  half-life (Sprague Dawley rats male, plasma; intravenous, 1 mg/kg): 4.7 h

A few entries again (block 1):
BT-549: 180 nM
